Assay results of several laboratories.
Each numbered part is a random draw from the data of one study; scales do not carry over between parts. Numbers after ± are the reported error.

Study 1
Target: HIV-1 TAR RNA
Concentration: concentration not given
Temperature: 25 °C
Compound	binding entropy term TΔS° [kcal/mol]
CC(=O)NCCN(CCC(=O)NCCN(CCC(=O)NCCN(CCC(=O)NCCC(N)=O)C(=O)[C@@H](N)CCCNC(=N)N)C(=O)[C@@H](N)CCCCN)C(=O)[C@@H](N)Cc1ccccc1	-7.53 ± 0.263
CC(=O)NCCN(CCC(=O)NCCN(CCC(=O)NCCN(CCC(=O)NCCC(N)=O)C(=O)[C@@H](N)CCCNC(=N)N)C(=O)[C@@H](N)Cc1ccccc1)C(=O)[C@@H](N)Cc1ccccc1	1.17 ± 0.12
CC(=O)NCCN(CC(=O)NCCN(CC(=O)NCCN(CC(=O)NCCC(N)=O)C(=O)[C@@H](N)Cc1ccccc1)C(=O)[C@@H](N)CCCNC(=N)N)C(=O)[C@@H](N)Cc1ccccc1	-4.83 ± 0.406
CC(=O)NCCN(CC(=O)NCCN(CC(=O)NCCN(CC(=O)NCCC(N)=O)C(=O)[C@@H](N)CCCNC(=N)N)C(=O)[C@@H](N)Cc1ccccc1)C(=O)[C@@H](N)Cc1ccccc1	-3.73 ± 0.143
CC(=O)NCCN(CC(=O)NCCN(CC(=O)NCCN(CC(=O)NCCC(N)=O)C(=O)C[C@@H](N)Cc1ccccc1)C(=O)C[C@@H](N)Cc1ccccc1)C(=O)C[C@@H](N)CCCNC(=N)N	2.61 ± 0.191

Study 2
SMILES: CNCc1ccc2c(c1)C[C@H](CNC(=N)N)[C@H]2NC(=O)C(=O)Nc1ccc(Cl)c(F)c1
Organism: Human immunodeficiency virus 1
Effect on: viral infection
Technique: Env pseudovirus
Cell line: TZM-bl
strain	IC80 [µM]
ZM53M.PB12 clade C	> 100
1012_11_TC21_3257 clade B T/F	72.2
HIV-0013095-2.11 clade C	6.39
6405.v4.c34 clade D	24.3
231965.c01 clade D	10.5
6535.3 clade B	0.832
ZM197M.PB7 clade C	4.78

Single results of other studies
Structure (SMILES)	target or system	test	test system	conditions	endpoint	result
F[P-](F)(F)(F)(F)F.OC(Cn1cncn1)(Cn1cc(-[c-]2cccc2)nn1)c1ccc(F)cc1F.[Co+3].c1cc[cH-]c1 (racemic)	Brugia pahangi	worm motility, Worminator	–	50 µM, adult females	inhibition	> 50%
C[C@H](Nc1ncnc(N)c1C#N)c1c(-c2ccccc2)[nH]c2c(Cl)cccc2c1=O	–	–	CB17 SCID mice, xenograft, plasma	oral, 200 mg/kg once daily, day 14	Cmax	38.6 ± 4.55 µM

A few entries again (study 1):
Compound	binding entropy term TΔS° [kcal/mol]
CC(=O)NCCN(CCC(=O)NCCN(CCC(=O)NCCN(CCC(=O)NCCC(N)=O)C(=O)[C@@H](N)CCCNC(=N)N)C(=O)[C@@H](N)CCCCN)C(=O)[C@@H](N)Cc1ccccc1	-7.53 ± 0.263
CC(=O)NCCN(CCC(=O)NCCN(CCC(=O)NCCN(CCC(=O)NCCC(N)=O)C(=O)[C@@H](N)CCCNC(=N)N)C(=O)[C@@H](N)Cc1ccccc1)C(=O)[C@@H](N)Cc1ccccc1	1.17 ± 0.12
